Values quoted from earlier work, collected from citations in different studies.
Each numbered part shows a few of the values that one paper quotes. ± marks the error that the study gave. Converted amounts (≈) assume the structure as drawn.
Sequence of UniProt P41595 (whole entry, looked up): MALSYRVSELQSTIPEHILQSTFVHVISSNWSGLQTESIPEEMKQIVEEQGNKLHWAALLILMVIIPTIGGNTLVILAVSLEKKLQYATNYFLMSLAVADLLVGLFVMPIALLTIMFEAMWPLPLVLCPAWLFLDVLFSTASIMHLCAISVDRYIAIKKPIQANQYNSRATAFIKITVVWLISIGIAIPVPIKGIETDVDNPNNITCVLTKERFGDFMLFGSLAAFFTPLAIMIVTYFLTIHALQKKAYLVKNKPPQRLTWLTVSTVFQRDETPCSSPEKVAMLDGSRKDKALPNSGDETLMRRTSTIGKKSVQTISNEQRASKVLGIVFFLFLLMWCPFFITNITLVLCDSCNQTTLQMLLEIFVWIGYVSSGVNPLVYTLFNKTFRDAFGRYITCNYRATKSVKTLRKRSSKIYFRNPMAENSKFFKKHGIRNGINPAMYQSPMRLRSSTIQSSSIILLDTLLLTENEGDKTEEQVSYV
Sequence of UniProt P02716 (whole entry, looked up): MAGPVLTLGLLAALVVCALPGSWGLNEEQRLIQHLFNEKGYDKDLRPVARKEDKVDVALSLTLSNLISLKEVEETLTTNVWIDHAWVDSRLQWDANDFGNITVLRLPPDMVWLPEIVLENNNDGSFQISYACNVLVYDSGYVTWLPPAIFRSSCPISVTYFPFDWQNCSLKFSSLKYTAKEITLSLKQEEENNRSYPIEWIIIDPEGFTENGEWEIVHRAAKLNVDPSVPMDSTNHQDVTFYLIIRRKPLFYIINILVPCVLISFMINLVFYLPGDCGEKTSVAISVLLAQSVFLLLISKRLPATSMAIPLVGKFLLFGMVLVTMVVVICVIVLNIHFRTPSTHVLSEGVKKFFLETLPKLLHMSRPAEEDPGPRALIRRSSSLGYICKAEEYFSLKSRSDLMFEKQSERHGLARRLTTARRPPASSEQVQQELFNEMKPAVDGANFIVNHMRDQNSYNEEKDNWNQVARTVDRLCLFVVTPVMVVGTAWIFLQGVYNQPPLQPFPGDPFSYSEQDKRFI
Sequence of UniProt P04756 (whole entry, looked up): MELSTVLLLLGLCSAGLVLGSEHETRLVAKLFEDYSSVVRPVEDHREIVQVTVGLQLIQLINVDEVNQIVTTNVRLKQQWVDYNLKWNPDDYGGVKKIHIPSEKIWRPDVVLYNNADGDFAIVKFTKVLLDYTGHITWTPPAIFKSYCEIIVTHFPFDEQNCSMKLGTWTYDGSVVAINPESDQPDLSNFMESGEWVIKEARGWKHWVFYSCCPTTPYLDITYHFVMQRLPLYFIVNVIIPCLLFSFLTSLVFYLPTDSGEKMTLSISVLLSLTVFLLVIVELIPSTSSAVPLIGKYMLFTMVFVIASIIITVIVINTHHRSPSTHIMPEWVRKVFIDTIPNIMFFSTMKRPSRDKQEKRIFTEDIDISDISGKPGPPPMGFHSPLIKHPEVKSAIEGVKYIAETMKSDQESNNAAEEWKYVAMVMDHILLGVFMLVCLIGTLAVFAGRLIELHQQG
Sequence of UniProt P28564 (whole entry, looked up): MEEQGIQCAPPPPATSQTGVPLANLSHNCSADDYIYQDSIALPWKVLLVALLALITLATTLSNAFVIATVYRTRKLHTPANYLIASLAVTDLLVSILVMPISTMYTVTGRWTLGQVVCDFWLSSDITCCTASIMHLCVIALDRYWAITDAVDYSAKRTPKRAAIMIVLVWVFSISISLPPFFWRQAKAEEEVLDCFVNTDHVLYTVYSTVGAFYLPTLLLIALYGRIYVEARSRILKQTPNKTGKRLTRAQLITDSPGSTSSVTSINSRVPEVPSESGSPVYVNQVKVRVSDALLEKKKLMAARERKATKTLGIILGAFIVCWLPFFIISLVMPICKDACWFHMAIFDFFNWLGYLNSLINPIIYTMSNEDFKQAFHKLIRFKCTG
Sequence of UniProt Q9JLB5 (whole entry, looked up): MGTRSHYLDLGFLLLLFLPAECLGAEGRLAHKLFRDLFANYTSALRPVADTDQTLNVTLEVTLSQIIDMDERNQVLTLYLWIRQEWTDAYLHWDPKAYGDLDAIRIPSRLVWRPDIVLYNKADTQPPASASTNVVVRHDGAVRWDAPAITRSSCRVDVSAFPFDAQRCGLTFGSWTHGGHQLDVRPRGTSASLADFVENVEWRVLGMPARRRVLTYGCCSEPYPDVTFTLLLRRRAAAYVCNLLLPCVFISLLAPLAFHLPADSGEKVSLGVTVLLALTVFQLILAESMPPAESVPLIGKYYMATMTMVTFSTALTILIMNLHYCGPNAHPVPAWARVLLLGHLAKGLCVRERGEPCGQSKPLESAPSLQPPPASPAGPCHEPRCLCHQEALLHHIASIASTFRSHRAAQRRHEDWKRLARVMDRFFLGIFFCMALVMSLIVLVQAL
Sequence of UniProt P43144 (whole entry, looked up): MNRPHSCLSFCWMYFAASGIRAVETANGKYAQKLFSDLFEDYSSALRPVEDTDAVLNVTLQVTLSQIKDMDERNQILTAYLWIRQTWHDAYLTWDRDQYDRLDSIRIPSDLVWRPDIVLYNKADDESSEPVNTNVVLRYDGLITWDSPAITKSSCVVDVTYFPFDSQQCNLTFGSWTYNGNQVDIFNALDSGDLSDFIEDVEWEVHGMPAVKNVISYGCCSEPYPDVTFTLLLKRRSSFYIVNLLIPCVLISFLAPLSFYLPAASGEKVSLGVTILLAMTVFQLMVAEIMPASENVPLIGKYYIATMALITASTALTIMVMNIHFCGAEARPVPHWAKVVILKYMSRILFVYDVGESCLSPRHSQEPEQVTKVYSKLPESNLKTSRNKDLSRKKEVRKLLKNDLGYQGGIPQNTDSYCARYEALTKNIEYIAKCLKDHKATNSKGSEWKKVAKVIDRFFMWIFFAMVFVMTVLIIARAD
Sequence of UniProt P21553 (whole entry, looked up): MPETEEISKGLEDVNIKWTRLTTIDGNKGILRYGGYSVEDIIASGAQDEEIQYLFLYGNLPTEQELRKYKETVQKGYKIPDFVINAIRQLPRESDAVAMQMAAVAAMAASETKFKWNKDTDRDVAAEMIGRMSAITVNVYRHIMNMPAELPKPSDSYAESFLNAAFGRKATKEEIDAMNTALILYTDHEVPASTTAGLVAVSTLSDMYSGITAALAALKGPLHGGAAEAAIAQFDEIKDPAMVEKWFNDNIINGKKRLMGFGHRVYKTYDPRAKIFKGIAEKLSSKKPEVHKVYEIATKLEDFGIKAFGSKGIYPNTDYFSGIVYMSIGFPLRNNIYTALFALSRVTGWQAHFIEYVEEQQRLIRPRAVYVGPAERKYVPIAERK
Sequence of UniProt P20782 (whole entry, looked up): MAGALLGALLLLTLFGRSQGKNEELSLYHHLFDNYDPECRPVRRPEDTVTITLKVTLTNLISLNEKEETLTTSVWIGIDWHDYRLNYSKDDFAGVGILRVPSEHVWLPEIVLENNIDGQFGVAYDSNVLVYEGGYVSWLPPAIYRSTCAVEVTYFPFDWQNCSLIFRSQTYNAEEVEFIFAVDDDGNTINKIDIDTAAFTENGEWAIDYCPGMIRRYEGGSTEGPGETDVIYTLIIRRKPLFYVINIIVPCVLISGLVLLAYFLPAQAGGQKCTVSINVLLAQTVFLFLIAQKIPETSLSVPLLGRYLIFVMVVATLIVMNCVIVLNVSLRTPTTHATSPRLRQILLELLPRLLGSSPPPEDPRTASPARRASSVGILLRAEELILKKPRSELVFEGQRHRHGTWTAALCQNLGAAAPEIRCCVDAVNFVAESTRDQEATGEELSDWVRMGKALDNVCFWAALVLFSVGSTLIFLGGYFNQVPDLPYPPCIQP

Set 1
Target: HLA class I histocompatibility antigen, A alpha chain, allele A*25:01 (Homo sapiens, UniProt P04439)
Read-out: peptide-MHC binding
Molecule type: peptide
Endpoint: IC50
LLDLEGHIL: > 20 µM
ESEVDDPAM: > 20 µM
CASSSDWFY: > 20 µM
DMYFCHFYK: > 20 µM
SHDLAPQFL: > 20 µM
TSASFTDLY: > 20 µM
FLRKNQRAL: > 20 µM
RGYVWTNGY: > 20 µM
FEFILRYGD: > 20 µM
FTGWRDPGL: > 20 µM
ARLSSPIVL: > 20 µM
HTAEIQQFF: 0.021 µM
LVTMGTGTFGR: > 20 µM
PVTPVIPRV: > 20 µM
RPPYSSYGY: > 20 µM
MEDCPNEGV: > 20 µM
FIVEHINAM: 0.029 µM
SSLLWGFYL: > 20 µM
NRDVSFQDL: > 20 µM
FSSCPVAY: > 20 µM
SQYDPKELL: > 20 µM
SAYYLDIGF: > 20 µM
SLMASSPTSI: > 20 µM
NNIEFNFTY: > 20 µM
RYSHWTKL: > 20 µM

Mixed results
C[Si]1(C)O[Si](C)(C)O[Si](C)(C)O[Si](C)(C)O[Si](C)(C)O1  bioconcentration factor (Poecilia reticulata; concentration not given, reanalysed data): 1040 L/kg wet weight
CCc1c2c(nc3ccc(OC(=O)N4CCC(NCCCCC(=O)O)CC4)cc13)-c1cc3c(c(=O)n1C2)COC(=O)[C@]3(O)CC  CYP inhibition (cytochrome P450 isoenzymes; concentration not given): no inhibition
CO[C@H]1/C=C/O[C@@]2(C)Oc3c(C)c(O)c4c(O)c(c(/C=N/N5CCN(C)CC5)c(O)c4c3C2=O)NC(=O)/C(C)=C\C=C\[C@H](C)[C@H](O)[C@@H](C)[C@@H](O)[C@@H](C)[C@H](OC(C)=O)[C@@H]1C  victim drug AUC decrease (perpetrator; human; dose not given, together with: midazolam as victim drug): 96%
COc1cc(CC(C)N)c(OC)cc1I (racemic) [iodine-125 labelled]  Kd (HTR2B (Homo sapiens, UniProt P41595); radioligand binding; CHO cells): 0.0002 µM
Cc1ccncc1NC(=O)Cc1cccc(I)c1  inhibition (main protease (Mpro); 20 µM): 17.4%
COc1c(-c2ccc3cc(NS(C)(=O)=O)ccc3c2)cc(-n2ccc(=O)[nH]c2=O)cc1C(C)(C)C  EC50 (hepatitis C virus; viral replication, replicon; genotype 1b): 0.0003 µM
CN1CCc2[nH]c3ccccc3c2CC1.O=C(O)/C=C/C(=O)O  Hill coefficient (Nicotinic acetylcholine receptor alpha9/alpha10 (Rattus norvegicus, UniProt P43144+Q9JLB5); inhibitor; together with: 10 µM acetylcholine): 2.3 ± 0.2
N#CCNC(=O)c1ccc(-c2ccnc(Nc3ccc(N4CCOCC4=O)cc3)n2)cc1  AUC(0-inf) increase (moderate renal impairment; dose not given): 20%
C/C=C1/CN2CC[C@]34C(=C(C(=O)OC)[C@H]1C[C@H]23)Nc1ccc(I)cc14  IC50 (kappa opioid receptor; adenylyl cyclase inhibition): 0.0057 µM
c1ccc2c(c1)-c1ccc3ccc4cccc5cc-2c1c3c45  logKow (slow stirring): 7.23
CCN1CCN(C(=O)N[C@@H](C(=O)N[C@@H]2C(=O)N3[C@@H]2SC(C)(C)[C@@H]3C(=O)O)c2ccccc2)C(=O)C1=O  MIC (Escherichia coli; AR0346 colistin resistant): 8 µg/mL (≈ 15.5 µM)
CCc1c2c(nc3ccc(OC(=O)N4CCC(N5CCCCC5)CC4)cc13)-c1cc3c(c(=O)n1C2)COC(=O)[C@]3(O)CC  NOAEL (refers to: offspring development; rat; organogenesis dosing): 0.24 mg/kg
CC(=O)SCCNC(=O)CCNC(=O)[C@H](O)C(C)(C)COP(=O)(O)OP(=O)(O)OC[C@H]1O[C@@H](n2cnc3c(N)ncnc32)[C@H](O)[C@@H]1OP(=O)(O)O  kcat (gltA (Thermoplasma acidophilum, UniProt P21553); substrate; 100 µM, pH 8, 20 °C, together with: oxaloacetate 400 µM): 9.2 s⁻¹
c1cc2ccc3cccc4ccc(c1)c2c34  logKow (slow stirring): 5.41
CN(C(=O)n1cnc(-c2ccc[n+]([O-])c2)c1)C1CCCCC1  NOAEL (mice; 13 weeks repeated daily dosing): 25 mg/kg/day
c1ccc(CNc2nc(NCc3ccccc3)c3ccccc3n2)cc1  Ki (p97 (VCP); inhibitor): 3.2 µM
NCC[C@H](O)C(=O)N[C@@H]1C[C@H](N)[C@@H](O[C@H]2O[C@H](CN)[C@@H](O)[C@H](O)[C@H]2O)[C@H](O)[C@H]1O[C@H]1O[C@H](CO)[C@@H](O)[C@H](N)[C@H]1O  MIC (Escherichia coli; bacterial growth; colistin-resistant): 2 µg/mL (≈ 3.42 µM)
CC(O)CN1CCN(CC(=O)[O-])CCN(CC(=O)[O-])CCN(CC(=O)[O-])CC1.[Gd+3] (centres unmarked)  relaxivity r1 (human plasma; 310 K, 1.41 T): 4.2 mM⁻¹ s⁻¹
CC(C)(C)NC[C@H](O)COc1cccc2[nH]c(C#N)c(I)c12 [iodine-125 labelled]  Kd (Htr1b (Rattus norvegicus, UniProt P28564); radioligand binding; rat cerebral cortex; together with: isoproterenol 30 µM): 0.00016 µM
CO/C1=C\C(C)=C\[C@@H](C)[C@@H](O)[C@@H](C)C/C(C)=C/C=C/[C@H](OC)[C@@H]([C@@H](C)[C@@H](O)[C@H](C)[C@@]2(O)C[C@@H](O)[C@H](C)[C@@H](C(C)C)O2)OC1=O  IC50 (ATP6V1A; inhibitor): 0.1 µM
C[N+](C)(C)C  Kd (Chrnd/Chrna1/Chrne (Mus musculus, UniProt P02716+P04756+P20782); wild-type receptor): 800 µM
Cc1n[nH]cc1NC(=O)Cc1cccc(Cl)c1  inhibition (main protease (Mpro); 20 µM): 3.64%
CCCCCOc1ccc(-c2cc(-c3ccc(C(=O)N[C@H]4C[C@@H](O)[C@@H](O)NC(=O)[C@@H]5[C@@H](O)[C@@H](C)CN5C(=O)[C@H]([C@H](O)CC(N)=O)NC(=O)[C@H]([C@H](O)[C@@H](O)c5ccc(O)c(OS(=O)(=O)O)c5)NC(=O)[C@@H]5C[C@@H](O)CN5C(=O)[C@H]([C@@H](C)O)NC4=O)cc3)no2)cc1  t_half (healthy Chinese subjects): 14.8 h
O=C(O)CC(=O)C(=O)O  Kd (Thermoplasma acidophilum citrate synthase W17F/W115F/W245F; fluorescence titration; 20 °C, unliganded enzyme): 1.2 µM
C=C[C@@H]1C[C@]1(NC(=O)[C@@H]1C[C@@H]2CN1C(=O)[C@H](C(C)(C)C)NC(=O)O[C@@H]1C[C@H]1CCCCCc1nc3ccc(OC)cc3nc1O2)C(=O)NS(=O)(=O)C1CC1  efflux ratio (human P-glycoprotein; LLC-PK1 transfected with human P-glycoprotein; 1 µM; baseline: B-A over A-B permeability): ~100

A few entries again (set 1):
HTAEIQQFF: 0.021 µM
LVTMGTGTFGR: > 20 µM
PVTPVIPRV: > 20 µM
RPPYSSYGY: > 20 µM
MEDCPNEGV: > 20 µM
